Experimental data gathered from unrelated publications.
Lines come from different studies, so protocols differ. Numbers after ± are the reported error.
Sequence of UniProt P21802 (whole entry, unmodified, looked up): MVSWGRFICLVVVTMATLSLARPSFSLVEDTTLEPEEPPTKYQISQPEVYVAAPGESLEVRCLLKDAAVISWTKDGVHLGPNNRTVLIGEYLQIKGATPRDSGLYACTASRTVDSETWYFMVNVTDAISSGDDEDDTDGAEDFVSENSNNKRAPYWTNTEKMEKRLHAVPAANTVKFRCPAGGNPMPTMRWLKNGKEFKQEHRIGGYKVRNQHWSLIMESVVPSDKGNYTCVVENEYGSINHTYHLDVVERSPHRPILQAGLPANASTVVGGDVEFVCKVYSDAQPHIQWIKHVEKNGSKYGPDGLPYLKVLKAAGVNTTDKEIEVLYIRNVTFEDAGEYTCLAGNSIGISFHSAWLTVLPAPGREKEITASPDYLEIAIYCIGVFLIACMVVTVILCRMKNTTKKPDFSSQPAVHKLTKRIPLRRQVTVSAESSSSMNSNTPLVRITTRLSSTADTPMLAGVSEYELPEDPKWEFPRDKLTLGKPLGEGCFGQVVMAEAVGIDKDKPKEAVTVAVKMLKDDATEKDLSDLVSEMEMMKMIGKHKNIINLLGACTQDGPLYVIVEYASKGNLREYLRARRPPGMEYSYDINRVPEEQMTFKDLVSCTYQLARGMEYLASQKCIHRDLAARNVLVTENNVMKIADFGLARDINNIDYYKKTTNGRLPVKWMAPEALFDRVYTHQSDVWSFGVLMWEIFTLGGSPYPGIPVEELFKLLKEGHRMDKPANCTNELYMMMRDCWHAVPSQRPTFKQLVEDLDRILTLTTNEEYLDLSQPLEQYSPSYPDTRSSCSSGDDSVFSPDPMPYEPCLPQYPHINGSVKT
Sequence of UniProt Q15303 (whole entry, looked up): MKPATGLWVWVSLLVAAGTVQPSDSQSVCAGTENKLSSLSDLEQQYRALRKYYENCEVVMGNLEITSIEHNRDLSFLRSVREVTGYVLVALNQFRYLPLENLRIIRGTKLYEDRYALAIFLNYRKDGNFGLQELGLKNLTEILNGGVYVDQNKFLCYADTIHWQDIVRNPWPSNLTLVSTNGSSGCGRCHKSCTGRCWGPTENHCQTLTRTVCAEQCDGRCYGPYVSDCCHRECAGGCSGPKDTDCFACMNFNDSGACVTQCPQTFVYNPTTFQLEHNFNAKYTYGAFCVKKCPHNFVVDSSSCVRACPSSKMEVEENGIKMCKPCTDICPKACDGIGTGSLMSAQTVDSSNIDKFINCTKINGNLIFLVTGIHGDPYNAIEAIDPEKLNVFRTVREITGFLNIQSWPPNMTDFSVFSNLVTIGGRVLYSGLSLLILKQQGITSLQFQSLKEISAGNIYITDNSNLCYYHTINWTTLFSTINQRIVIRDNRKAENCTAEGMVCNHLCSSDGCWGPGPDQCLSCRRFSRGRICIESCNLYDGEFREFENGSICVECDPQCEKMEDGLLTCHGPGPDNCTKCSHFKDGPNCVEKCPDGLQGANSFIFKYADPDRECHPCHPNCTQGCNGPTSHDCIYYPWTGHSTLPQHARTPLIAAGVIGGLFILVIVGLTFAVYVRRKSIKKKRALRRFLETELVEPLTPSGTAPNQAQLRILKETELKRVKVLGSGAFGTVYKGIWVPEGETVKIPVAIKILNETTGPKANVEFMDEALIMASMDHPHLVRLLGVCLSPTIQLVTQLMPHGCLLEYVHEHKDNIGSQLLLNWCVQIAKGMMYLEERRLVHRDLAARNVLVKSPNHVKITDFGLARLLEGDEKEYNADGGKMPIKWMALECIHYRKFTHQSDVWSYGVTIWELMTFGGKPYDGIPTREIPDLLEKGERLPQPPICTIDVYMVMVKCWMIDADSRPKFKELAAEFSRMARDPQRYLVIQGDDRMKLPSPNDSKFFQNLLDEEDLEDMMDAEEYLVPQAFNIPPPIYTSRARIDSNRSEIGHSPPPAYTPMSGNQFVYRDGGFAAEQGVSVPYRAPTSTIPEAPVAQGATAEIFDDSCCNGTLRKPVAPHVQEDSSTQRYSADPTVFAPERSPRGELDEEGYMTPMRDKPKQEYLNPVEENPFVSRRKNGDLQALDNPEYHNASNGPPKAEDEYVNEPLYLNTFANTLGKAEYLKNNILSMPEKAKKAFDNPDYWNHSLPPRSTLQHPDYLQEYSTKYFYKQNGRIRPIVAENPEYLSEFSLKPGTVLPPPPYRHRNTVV
Sequence of UniProt P57078 (whole entry, looked up): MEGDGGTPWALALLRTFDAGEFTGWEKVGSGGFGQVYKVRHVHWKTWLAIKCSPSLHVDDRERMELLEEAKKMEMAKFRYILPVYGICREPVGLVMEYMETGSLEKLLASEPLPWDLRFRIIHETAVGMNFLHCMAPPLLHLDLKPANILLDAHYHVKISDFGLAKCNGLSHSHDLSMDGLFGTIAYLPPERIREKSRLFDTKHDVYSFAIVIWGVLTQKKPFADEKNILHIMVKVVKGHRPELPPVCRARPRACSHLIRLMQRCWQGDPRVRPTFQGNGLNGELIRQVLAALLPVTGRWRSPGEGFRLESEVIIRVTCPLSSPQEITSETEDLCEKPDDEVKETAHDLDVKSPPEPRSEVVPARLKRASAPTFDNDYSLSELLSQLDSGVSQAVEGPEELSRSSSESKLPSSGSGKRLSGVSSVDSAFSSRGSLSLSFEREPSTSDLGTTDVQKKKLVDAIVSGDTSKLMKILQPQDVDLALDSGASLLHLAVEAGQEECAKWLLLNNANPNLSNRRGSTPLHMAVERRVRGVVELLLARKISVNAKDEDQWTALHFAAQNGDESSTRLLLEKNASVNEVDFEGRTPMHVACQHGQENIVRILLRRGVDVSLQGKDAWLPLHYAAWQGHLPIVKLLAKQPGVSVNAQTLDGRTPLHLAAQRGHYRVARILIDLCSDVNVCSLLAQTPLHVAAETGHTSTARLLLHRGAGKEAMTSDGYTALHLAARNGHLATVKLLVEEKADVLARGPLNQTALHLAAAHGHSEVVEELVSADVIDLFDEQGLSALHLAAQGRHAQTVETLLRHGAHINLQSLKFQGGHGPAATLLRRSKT

Compound | tested on | test | test system | conditions | scale | quantity | value
Cn1cc(-c2ccc(-c3cncc(Cl)c3N3CCC4(CCNC4=O)CC3)cc2)cn1 | COLO 205 | gene expression, microarray, measured: PLK1 mRNA |  | concentration not given, 6 h | reference: untreated cells | log2 fold change | -2.2
CNCc1ccc(-c2[nH]c3cc(F)cc4c3c2CCNC4=O)cc1 |  |  | human patients | oral, 600 mg twice daily, grade 5 |  | dizziness incidence | 0%
Cc1cc(NC(=O)c2cccc(NC(=O)/C=C/CN(C)C)c2)ccc1Nc1nccc(-c2cccnc2)n1 | Mitogen-activated protein kinase 9 (MAPK9, Homo sapiens, UniProt P45984) | enzyme activity, inhibitor |  | 0.1829 µM, unit not given | reference: vehicle | remaining activity | 0.16
COc1ccc(F)cc1C(=O)NCc1ccc(-c2nn([C@@H](C)C(F)(F)F)c(N)c2C(N)=O)cc1 | cAMP-dependent protein kinase catalytic subunit beta (PRKACB, Homo sapiens, UniProt P22694) | kinase activity, inhibitor, HotSpot radiometric |  | 1000 nM, added: ATP at Km |  | remaining activity | 95.5 ± 2.8%
O=C(NC1CCC1)c1ccc2nc(-c3cccc(NS(=O)(=O)NCCN4CCCCC4)c3)cn2c1 | Receptor-interacting serine/threonine-protein kinase 4 (RIPK4, Homo sapiens, UniProt P57078) | enzyme activity |  | 10 µM |  | remaining activity | 89%
C=CC(=O)N1CCC[C@@H](n2nc(-c3ccc(Oc4ccccc4)cc3)c3c(N)ncnc32)C1 | Receptor tyrosine-protein kinase erbB-4 (ERBB4, Homo sapiens, UniProt Q15303) |  |  | 1 µM |  | remaining activity | 44.1%
COc1cc(Nc2ncc3c(n2)-c2ccc(Cl)cc2C(c2c(F)cccc2OC)=NC3)ccc1C(=O)O | GRK7 | kinase activity |  | 1 µM |  | remaining activity | 98%
Cc1cc(Nc2cc(N3CCN(C)CC3)nc(Sc3ccc(NC(=O)C4CC4)cc3)n2)[nH]n1 | Testis-specific serine/threonine-protein kinase 2 (TSSK2, Homo sapiens, UniProt Q96PF2) | kinase activity, KinaseProfiler |  | 0.03 µM, species human | reference: control | remaining activity | 98%
c1csc(CNc2cc[nH]n2)c1 | human peripheral blood lymphocytes (female) |  |  | 1840 µg/mL, 4 h, initial, added: with S9 |  | cells with structural aberrations | 1%
CC(C)C[C@H](NC(=O)C[C@H](O)[C@H](CC(C)C)NC(=O)[C@H](Cc1c[nH]cn1)NC(=O)CNC(=O)[C@@H](NC(=O)[C@H](C)NC(=O)[C@H](Cc1c[nH]c2ccccc12)NC(=O)[C@H](CCC(N)=O)NC(=O)[C@@H](Cc1ccccc1)NC(=O)COCCOCCNC(=O)CCC(C(=O)O)N1CCN(CC(=O)O)CCN(CC(=O)O)CCN(CC(=O)O)CC1)C(C)C)C(N)=O (stereo partly shown) [lutetium-177 labelled] |  |  | female BALB/c nu/nu mice, stomach | intravenous, 100 pmol, 24 h, added: PA 300 µg |  | tissue uptake | 0.06 ± 0.03 %ID/g
COc1cc(F)ccc1-c1ncnc(Nc2cccc(C[S@](C)(=N)=O)c2)n1 | Fibroblast growth factor receptor 2 (FGFR2, Homo sapiens, UniProt P21802) | kinase activity |  | 10 µM, added: 10 µM ATP |  | remaining activity | 87%
COc1cc(-c2cncc3c2CN(C)Cc2cc(N4CCNCC4)ccc2-3)cc(OC)c1OC | Fibroblast growth factor receptor 2 (FGFR2, Homo sapiens, UniProt P21802, N549H) | kinase activity |  | 1 µM, added: ATP 10 µM | reference: DMSO control | remaining activity | 95%
O=C(O)c1ccc(Nc2ncc3c(n2)-c2ccc(Cl)cc2C(c2c(F)cccc2F)=NC3)cc1 | human STK33(h) | kinase activity |  | 1 µM |  | remaining activity | 96%

Repeated from above:
Compound | tested on | test | test system | conditions | scale | quantity | value
CC(C)C[C@H](NC(=O)C[C@H](O)[C@H](CC(C)C)NC(=O)[C@H](Cc1c[nH]cn1)NC(=O)CNC(=O)[C@@H](NC(=O)[C@H](C)NC(=O)[C@H](Cc1c[nH]c2ccccc12)NC(=O)[C@H](CCC(N)=O)NC(=O)[C@@H](Cc1ccccc1)NC(=O)COCCOCCNC(=O)CCC(C(=O)O)N1CCN(CC(=O)O)CCN(CC(=O)O)CCN(CC(=O)O)CC1)C(C)C)C(N)=O (stereo partly shown) [lutetium-177 labelled] |  |  | female BALB/c nu/nu mice, stomach | intravenous, 100 pmol, 24 h, added: PA 300 µg |  | tissue uptake | 0.06 ± 0.03 %ID/g
